Measured values of several laboratories.
A part holds a random share of what one study measured.

Block 1 — target: UBE2D4 UBC core domain (UniProt Q9Y2X8); technique: yeast two-hybrid; matrix: yeast; setting: mostly zero background; relative to: not given; reading: higher = stronger interaction
B1: TRIM47 RING domain (UniProt Q96LD4); chain MDGSGPFSCPICLEPLREPVTLPCGHNFCLACLGALWPHRGASGAGGPGGAARCPLCQEPFPDGLQLR
B2: RFPL3 RING domain (UniProt O75679); chain MAALFQEASSCPVCSDYLEKPMSLECGCTVCLKCINSLQKEPHGEDLLCCCCSMVSQRNKIRP
B3: RMND5B RING domain (UniProt Q96G75); chain MKCWYHSVFACPILRQQTSDSNPPIKLICGHVISRDALNKLINGGKLKCPYCPMEQNPADGK
B4: TRIM68 RING domain (UniProt Q6AZZ1); chain LVEAIVEEVACPICMTFLREPMSIDCGHSFCHSCLSGLWEIPGESQNWGYTCPLCRAPVQPRNLRP
B5: RNF130 RING domain (UniProt Q86XS8); chain DKETDPDFDHCAVCIESYKQNDVVRILPCKHVFHKSCVDPWLSEHCTCPMCKLNILKALGIV
B6: CBLL1 RING domain (UniProt Q75N03); chain GEKDDTPVHFCDKCGLPIKIYGRMIPCKHVFCYDCAILHEKKGDKMCPGCSDPVQRIEQCT
Residues (chain): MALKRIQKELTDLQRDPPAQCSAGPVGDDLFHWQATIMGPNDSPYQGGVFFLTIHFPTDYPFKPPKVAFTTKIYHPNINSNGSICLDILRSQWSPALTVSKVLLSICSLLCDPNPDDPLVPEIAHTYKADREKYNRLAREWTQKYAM
For `B1 (TRIM47 RING domain)`, “lacZ reporter activity” read 0.
For `MEEMEEELKCPVCGSFYREPIILPCSHNLCQACARNILVQTPESESPQSHRAAGSGVSDY (TRIM9 RING domain (UniProt Q9C026))`, “lacZ reporter activity” read 0.
For `B2 (RFPL3 RING domain)`, “lacZ reporter activity” read 0.
`B3 (RMND5B RING domain)`: “lacZ reporter activity” 11100.
`B4 (TRIM68 RING domain)`: “lacZ reporter activity” 0.
Under “lacZ reporter activity”, `B5 (RNF130 RING domain)` is recorded as 14800.
`B6 (CBLL1 RING domain)` — result for “lacZ reporter activity”: 0.
`AAQLLEEKLTCAICLGLYQDPVTLPCGHNFCGACIRDWWDRCGKACPECREPFPDGAELR (TRIM65 RING domain (UniProt Q6PJ69))`: “lacZ reporter activity” 0.

Block 2 — technique: competition protein-binding microarray; molecule type: double-stranded DNA, one strand shown; matrix: in vitro; concentration: 2 µM; added: Pho4 competitor, 0.05 µM; reading: higher = stronger binding; constant ends, left off below: … GTCTTGATTCGCTTGACGCTGCTG
Target: Centromere-binding protein 1, full length, His-tagged (CBF1, Saccharomyces cerevisiae, UniProt P17106, residues 1-351)
Chain of UniProt P17106 (whole entry, looked up): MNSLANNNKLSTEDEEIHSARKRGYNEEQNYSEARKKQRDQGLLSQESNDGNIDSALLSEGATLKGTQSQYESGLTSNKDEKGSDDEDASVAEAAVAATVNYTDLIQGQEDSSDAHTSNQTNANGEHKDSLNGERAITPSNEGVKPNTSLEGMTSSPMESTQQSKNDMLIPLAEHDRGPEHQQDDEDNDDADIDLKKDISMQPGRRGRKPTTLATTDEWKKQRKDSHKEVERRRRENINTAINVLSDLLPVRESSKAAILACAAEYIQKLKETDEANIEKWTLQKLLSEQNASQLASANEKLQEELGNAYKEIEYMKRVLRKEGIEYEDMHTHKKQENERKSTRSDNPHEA
Setting: whole 60-bp probe, lowest competitor level
With `GTGCGGCCATTGCTGAAAATCGCAAAACCCACAGAG` the fluorescence intensity was 84.4 a.u.
The fluorescence intensity of `CGTTCTTGGGGACACCGCGTGCGATGCTCAGGATCG` is reported as 63.7 a.u.
`CAAACTCTCCGAGGACACGTGCCGAACAAAGAATGT` gave a fluorescence intensity of 2770 a.u.
With `CTTCTGTAAATTTGGGTTGTGGGTGGACGCGCCCCG` the fluorescence intensity was 91.5 a.u.
For `AAATTACTAAGTTGTGCAGTGGGTGACGCCGTATGA`, the fluorescence intensity was 72 a.u.
`CGTCCTAGTGATTGTTGAGTGGGTGCCATGAGGAAG` has a fluorescence intensity of 92.7 a.u.
With `ATCCCATTGGCAAATCACCTGTTCCGGCTGCTTGAT` the fluorescence intensity was 188 a.u.
With `TTTCATGGACTTTTTCACGTGGTCGTTGCCATTTGT` the fluorescence intensity was 1050 a.u.

Block 3 — technique: protein-binding microarray; molecule type: double-stranded DNA, one strand shown; matrix: in vitro; concentration: not given; reading: higher = stronger binding
Target: Protein C-ets-1 (ETS1, Homo sapiens, UniProt P14921, residues 1-441, K379A, full length assumed)
Setting: k-mer, scored over probes, only values ≥0.25
Target sequence (chain): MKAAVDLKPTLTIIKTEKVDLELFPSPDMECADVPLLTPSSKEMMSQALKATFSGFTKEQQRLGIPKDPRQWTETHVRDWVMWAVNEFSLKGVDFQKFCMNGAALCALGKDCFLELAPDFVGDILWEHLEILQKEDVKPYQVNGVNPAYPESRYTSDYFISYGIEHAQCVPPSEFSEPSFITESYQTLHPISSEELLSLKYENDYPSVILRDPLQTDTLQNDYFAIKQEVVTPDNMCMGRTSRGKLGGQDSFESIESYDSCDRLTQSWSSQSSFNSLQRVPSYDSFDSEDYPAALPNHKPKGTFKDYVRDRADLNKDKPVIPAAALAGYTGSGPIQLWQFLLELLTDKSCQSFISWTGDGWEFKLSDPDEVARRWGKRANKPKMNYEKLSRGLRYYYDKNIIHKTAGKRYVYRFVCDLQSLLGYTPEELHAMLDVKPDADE
The E-score of `CGGTGACC` is reported as 0.262.
`CCGGGGAG` gave an E-score of 0.269.
The E-score of `ATTTGCCG` is reported as 0.269.
The E-score of `ACGTTAGA` is reported as 0.269.
`CAATCCCG` gave an E-score of 0.337.
The E-score of `TACCGCCA` is reported as 0.304.
`ACCGGATA` has an E-score of 0.438.
`ACCCCGGA` gave an E-score of 0.265.

Block 4 — technique: RNA Bind-n-Seq; molecule type: RNA; matrix: in vitro; concentration: not given; relative to: input RNA pool; reading: higher = stronger binding
Target: RING finger protein unkempt homolog, zinc fingers 1-6, GST-SBP tag (UNK, Homo sapiens, UniProt Q9C0B0, residues 30-357)
Chain of UniProt Q9C0B0 (30-357, looked up): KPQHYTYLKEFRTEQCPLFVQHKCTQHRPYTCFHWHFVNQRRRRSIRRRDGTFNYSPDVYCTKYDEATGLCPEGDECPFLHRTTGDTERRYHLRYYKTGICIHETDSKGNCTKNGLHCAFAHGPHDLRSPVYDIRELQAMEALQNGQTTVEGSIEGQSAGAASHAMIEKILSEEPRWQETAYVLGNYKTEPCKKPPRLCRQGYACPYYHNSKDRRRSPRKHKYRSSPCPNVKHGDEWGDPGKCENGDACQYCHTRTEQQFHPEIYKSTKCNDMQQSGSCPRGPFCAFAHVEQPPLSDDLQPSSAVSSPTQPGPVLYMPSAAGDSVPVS
Setting: RNA with constant flanks, human and mouse sites, ends assumed
Constant ends, left off below: GGGAGUUCUACAGUCCGACGAUC … CAACAGAGGAUUGAGCAUCA
`GCCCGGAAAACUGUGAAAAAAAUACUUAGUGACAUUGGGUUGGAAUACUGUAAAGAACAUAUAGAAGAUUUUAAACAAUUUGAACCUAAUGACUUUUAUUUGAAAAACACUACAUGGGAG` has a bound/input enrichment of 1.16 ratio.
For `AACACUAAUGAGAGAUCAUGAUGCAGCCGCCCUUUUGGAUUUCUUUUUAAUAAUGUGUGACCCUUCACCUUUGAUCCCCUGACCUGCAUUACCUUGGUAACCAUUUCAUUUUUUAAUUUA`, the bound/input enrichment was 0.957 ratio.
`AAUUGUGCAAUCAGCAGCUCUGAUGACCGCAGUCUCUUUCGACGACUGAAACUGAAUUAUGCAAUUUUUGAUGAAGGCCAUAUGCUGAAGAAUAUGGGCUCUAUCCGCUAUCAACAUCUA` gave a bound/input enrichment of 0.148 ratio.
With `AGGAACUGCAGAAUGGUCCUGGACUGGCUCCCAGUCUGUACCUUUUUCUCAUCUUUCCUGGAGAUGGGAGCAGCAUCCUAAGCCCUUCCGUGGCGACAUGUAAUACAUUUGAGGGAUGGA` the bound/input enrichment was 0.26 ratio.
With `CGGCCCAAGCAGGAGCUGCAGCGAGCCGGGUACCUGGACUCAGCGGUAGCAACCUCGCCCCUUGCAACAAAGGCAGACUGAGCGCCAGAGAGGACGUUUCCAACUCAAAAAUGCAGGCUC` the bound/input enrichment was 0.113 ratio.
`CUAGAAGUCCUGCCAGGUAGUUUGAUAAGAAUGCCUACCCAGUGCCCCCAGGCUUACAUACUUGAAUUGCUGAGUCAUCAGGGAUUACGGGAGAGGCUUAGGAGGUGUGGCUUUAUUGGA` has a bound/input enrichment of 0.76 ratio.
`CAAGAUCACCUGUUGCCUGAAGCAGAAGAAAUCACUAUGAUCAGUAUUCAACUUGCUGCUAGGUUCCUCUUUACUACAGGAUUUCACACAAAGAAAGUAGUCCGUGGCUCUGCCAGUGAU` has a bound/input enrichment of 0.205 ratio.
For `AACCUUCAACAGUAGAAGUUCUAGAAAAUAUAGAUAAGGAAAUUCAAGCAUUGGAAGAAUUUAGAGAAAAAAAUCAGAGAUUGCAAAAAUUAUGGGUUGGAAGAUUAAUUAUCUAUUCUU`, the bound/input enrichment was 22.8 ratio.

A few entries again (block 3):
`CCGGGGAG` gave an E-score of 0.269.
The E-score of `ATTTGCCG` is reported as 0.269.
The E-score of `ACGTTAGA` is reported as 0.269.
`CAATCCCG` gave an E-score of 0.337.
